Measured values of several laboratories.
Lines come from different studies, so protocols differ. “And” joins repeats or separate records; there may be more than shown. ± marks the error that the study gave.
ACHE: Acetylcholinesterase (ACHE, Homo sapiens, UniProt P22303)
UniProt P22303, sequence (whole entry, looked up): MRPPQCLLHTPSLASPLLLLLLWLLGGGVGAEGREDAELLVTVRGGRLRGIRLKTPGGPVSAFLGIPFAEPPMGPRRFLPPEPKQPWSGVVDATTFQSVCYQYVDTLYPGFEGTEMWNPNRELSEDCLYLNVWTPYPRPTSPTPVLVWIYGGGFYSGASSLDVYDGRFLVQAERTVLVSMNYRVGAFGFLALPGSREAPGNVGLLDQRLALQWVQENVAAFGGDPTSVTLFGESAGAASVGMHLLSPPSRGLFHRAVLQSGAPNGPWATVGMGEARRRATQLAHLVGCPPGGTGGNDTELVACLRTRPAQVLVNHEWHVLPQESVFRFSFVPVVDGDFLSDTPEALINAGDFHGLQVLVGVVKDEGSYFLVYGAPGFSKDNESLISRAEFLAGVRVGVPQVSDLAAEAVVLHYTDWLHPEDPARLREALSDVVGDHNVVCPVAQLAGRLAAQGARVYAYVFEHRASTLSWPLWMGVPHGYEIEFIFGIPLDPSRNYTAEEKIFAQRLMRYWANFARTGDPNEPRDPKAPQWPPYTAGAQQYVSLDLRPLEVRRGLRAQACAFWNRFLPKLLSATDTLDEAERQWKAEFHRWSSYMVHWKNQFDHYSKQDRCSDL
PFF0160c E182D: Dihydroorotate dehydrogenase (quinone), mitochondrial (PFF0160c, Plasmodium falciparum, UniProt Q08210, E182D)
UniProt Q007T0, sequence (whole entry, looked up): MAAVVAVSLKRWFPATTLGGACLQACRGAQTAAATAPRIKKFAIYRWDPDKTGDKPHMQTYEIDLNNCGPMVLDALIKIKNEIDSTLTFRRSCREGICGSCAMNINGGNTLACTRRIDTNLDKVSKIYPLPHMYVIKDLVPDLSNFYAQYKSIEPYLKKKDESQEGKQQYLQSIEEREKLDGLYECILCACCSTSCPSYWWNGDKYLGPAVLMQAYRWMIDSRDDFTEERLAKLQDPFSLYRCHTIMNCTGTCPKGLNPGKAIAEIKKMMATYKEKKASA
UniProt D0VWV4, sequence (whole entry, looked up): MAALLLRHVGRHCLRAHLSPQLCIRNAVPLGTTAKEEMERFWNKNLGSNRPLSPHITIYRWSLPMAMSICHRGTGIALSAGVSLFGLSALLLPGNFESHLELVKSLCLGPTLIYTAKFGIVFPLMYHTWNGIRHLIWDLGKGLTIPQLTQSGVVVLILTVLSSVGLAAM
UniProt A5GZW8, sequence (whole entry, looked up): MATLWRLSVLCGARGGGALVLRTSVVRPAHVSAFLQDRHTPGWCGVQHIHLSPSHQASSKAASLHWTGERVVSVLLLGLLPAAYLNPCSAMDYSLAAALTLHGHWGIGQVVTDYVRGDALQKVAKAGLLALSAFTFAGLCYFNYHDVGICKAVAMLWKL
UniProt P21453, sequence (whole entry, looked up): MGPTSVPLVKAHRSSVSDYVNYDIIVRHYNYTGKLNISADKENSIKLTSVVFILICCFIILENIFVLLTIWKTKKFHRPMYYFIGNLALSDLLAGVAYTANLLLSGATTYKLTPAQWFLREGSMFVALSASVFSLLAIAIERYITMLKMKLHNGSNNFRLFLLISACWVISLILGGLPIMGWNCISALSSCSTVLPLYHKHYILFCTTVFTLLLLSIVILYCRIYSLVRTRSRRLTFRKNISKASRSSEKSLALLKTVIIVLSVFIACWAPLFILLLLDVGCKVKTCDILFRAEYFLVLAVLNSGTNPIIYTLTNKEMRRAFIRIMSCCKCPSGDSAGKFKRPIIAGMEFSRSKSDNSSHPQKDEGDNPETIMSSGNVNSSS
UniProt Q99678, sequence (whole entry, looked up): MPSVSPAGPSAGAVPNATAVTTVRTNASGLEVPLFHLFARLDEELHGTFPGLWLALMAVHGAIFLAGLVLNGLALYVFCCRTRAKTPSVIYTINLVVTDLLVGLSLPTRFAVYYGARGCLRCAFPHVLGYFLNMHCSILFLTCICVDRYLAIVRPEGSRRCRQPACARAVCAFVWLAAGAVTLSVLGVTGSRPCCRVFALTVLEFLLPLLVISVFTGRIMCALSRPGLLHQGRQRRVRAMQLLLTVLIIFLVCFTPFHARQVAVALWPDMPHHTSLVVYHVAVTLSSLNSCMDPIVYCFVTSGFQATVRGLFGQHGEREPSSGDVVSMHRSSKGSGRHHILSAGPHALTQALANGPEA
UniProt P14868, sequence (whole entry, looked up): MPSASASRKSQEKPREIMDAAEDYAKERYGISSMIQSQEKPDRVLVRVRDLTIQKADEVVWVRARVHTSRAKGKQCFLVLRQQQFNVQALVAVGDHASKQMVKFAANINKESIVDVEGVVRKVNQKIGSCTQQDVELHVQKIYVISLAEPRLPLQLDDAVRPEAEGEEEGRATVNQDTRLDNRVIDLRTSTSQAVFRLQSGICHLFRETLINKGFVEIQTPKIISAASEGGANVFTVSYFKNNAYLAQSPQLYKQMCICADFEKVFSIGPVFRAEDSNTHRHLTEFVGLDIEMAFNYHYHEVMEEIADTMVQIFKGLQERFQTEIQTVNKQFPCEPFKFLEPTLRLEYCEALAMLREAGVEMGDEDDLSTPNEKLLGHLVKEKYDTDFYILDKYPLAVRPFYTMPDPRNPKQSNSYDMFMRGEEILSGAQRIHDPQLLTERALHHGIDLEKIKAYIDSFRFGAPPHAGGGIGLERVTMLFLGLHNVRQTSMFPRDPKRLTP
UniProt P30530, sequence (whole entry, looked up): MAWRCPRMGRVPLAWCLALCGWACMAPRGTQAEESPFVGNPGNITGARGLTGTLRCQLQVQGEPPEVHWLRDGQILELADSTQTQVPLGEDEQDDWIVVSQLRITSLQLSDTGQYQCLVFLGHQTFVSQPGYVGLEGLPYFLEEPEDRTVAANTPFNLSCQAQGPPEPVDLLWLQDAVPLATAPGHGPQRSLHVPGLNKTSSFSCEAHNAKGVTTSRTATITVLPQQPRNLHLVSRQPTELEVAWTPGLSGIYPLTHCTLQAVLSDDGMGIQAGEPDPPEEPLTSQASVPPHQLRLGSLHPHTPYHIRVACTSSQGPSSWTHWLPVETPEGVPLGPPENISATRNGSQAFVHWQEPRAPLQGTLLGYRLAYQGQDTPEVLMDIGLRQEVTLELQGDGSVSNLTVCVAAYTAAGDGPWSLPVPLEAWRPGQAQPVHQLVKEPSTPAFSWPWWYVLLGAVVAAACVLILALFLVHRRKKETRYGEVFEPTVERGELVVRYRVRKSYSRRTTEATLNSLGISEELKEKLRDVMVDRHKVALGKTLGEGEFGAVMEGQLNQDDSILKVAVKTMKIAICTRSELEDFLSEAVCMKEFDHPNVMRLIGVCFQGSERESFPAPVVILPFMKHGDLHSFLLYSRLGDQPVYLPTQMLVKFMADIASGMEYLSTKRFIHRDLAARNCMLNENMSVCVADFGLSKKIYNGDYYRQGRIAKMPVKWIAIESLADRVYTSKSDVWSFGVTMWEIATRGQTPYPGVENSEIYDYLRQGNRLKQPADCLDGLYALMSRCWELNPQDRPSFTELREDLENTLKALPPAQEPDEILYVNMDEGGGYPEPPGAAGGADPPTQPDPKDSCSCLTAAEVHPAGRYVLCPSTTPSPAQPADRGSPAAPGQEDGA
UniProt P12104, sequence (whole entry, unmodified, looked up): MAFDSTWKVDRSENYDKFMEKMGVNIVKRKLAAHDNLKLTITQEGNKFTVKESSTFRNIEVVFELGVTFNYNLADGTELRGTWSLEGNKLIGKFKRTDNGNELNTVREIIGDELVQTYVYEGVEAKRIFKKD
UniProt O70489, sequence (whole entry, looked up): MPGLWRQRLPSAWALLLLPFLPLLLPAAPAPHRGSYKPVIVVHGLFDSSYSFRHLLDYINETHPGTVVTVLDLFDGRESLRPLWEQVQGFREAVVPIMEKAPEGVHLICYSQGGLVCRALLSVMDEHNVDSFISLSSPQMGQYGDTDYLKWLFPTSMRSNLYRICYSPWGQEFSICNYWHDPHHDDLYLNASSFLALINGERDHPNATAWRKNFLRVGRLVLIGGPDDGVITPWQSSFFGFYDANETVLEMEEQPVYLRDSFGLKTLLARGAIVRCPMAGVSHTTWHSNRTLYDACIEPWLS
UniProt Q9GZZ6, sequence (whole entry, looked up): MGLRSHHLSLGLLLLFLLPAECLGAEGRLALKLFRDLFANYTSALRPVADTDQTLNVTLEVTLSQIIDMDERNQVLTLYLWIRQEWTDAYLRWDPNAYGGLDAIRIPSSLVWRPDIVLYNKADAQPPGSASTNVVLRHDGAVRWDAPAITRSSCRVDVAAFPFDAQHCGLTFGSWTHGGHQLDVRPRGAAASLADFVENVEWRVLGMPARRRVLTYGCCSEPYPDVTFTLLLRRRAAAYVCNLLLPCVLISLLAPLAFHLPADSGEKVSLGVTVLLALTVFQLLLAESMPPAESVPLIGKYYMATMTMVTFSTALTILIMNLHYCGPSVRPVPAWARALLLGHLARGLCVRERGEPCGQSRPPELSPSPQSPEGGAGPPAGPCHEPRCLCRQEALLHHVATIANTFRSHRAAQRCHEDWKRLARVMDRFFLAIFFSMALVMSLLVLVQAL
UniProt P31645, sequence (whole entry, looked up): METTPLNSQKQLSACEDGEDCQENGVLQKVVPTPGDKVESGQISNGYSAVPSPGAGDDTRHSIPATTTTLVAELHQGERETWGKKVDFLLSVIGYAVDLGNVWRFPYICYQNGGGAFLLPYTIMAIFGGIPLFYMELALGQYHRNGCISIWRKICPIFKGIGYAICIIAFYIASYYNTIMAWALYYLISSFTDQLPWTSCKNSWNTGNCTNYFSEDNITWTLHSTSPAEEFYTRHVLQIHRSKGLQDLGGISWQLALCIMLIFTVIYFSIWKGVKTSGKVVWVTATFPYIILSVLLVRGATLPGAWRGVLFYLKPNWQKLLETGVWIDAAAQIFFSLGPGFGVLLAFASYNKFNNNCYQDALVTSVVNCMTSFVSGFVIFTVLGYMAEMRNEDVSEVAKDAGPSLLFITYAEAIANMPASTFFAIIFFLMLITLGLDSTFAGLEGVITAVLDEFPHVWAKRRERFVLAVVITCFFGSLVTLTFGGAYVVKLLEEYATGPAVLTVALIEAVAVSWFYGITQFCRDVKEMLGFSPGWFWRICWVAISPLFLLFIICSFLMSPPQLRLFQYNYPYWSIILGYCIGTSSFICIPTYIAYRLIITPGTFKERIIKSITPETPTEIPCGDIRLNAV

Structure (SMILES)	target	assay	test system	conditions	how to read	quantity	result
C=C(CN(C(=O)c1c(C(F)F)nn(C)c1F)C1CC1)c1ccc(Cl)cc1Cl	SDHD/SDHC/SDHB (Sus scrofa, UniProt A5GZW8+D0VWV4+Q007T0)	enzyme activity, inhibitor, DCIP reduction	pig	0.2 µM, added: DCIP 160 µM	–	reaction velocity	0.0239 µM/s and 0.0214 µM/s and 0.022 µM/s
c1ccc2c3c(ccc2c1)-c1cccc2cccc-3c12	Aryl hydrocarbon receptor (Danio rerio, UniProt Q9YGV3)	reporter gene, agonist, luciferase reporter	ZF-4	30000 µM	baseline: vehicle control	fold change	16.4
CC(Oc1c(Cl)cccc1Cl)C1=NCCN1 (stereo not drawn)	ACHE	–	biochemical	concentration not given	–	activity class	inactive
COc1ccc2[nH]c3c(c2c1)CCN(C)CC3.Cl	Neuronal acetylcholine receptor; alpha3/beta4 (Rattus norvegicus, UniProt P04757+P12392)	ion current, inhibitor, two-electrode voltage clamp	Xenopus laevis oocytes, rat	added: 100 µM acetylcholine	–	Hill coefficient	1.8 ± 0.2
C[C@H]1CN(c2n[nH]c3nc(N[C@H]4CC[C@H](NS(=O)(=O)CCC(F)(F)F)CC4)ncc23)CCO1	Aspartate--tRNA ligase, cytoplasmic (DARS1, Homo sapiens, UniProt P14868)	Kinobeads competition, item: DARS	–	0.032 µM, unit not given	baseline: vehicle	remaining binding	1.06
CN(C(=O)n1cnc(-c2ccc[n+]([O-])c2)c1)C1CCCCC1	Lysosomal thioesterase PPT2 (Ppt2, Rattus norvegicus, UniProt O70489)	enzyme activity, ABPP	rat, brain	oral, 30 mg/kg/day, 28 days	baseline: vehicle	fold change	-16.1
COc1ncccc1-c1cnn2ccc(N3CCN(C(=O)OC(C)C)CC3)nc12	Ribosomal protein S6 kinase alpha-5, N-terminal kinase domain (RPS6KA5, Homo sapiens, UniProt O75582)	KINOMEscan binding	–	1 µM	baseline: untreated control	remaining binding	100%
Cc1cc(Nc2ccc(C)c(Cl)c2)n2ncnc2n1	PFF0160c E182D	enzyme activity, DCIP colorimetric	–	–	baseline: E182D mutant over wild type	IC50 ratio	6.4
OC1Cc2ccccc2CC1N1CCC2(C=Cc3ccc(F)cc32)CC1 (racemic)	Vesicular acetylcholine transporter (Rattus norvegicus, UniProt Q62666)	–	–	–	baseline: Ki sigma1 over Ki VAChT	selectivity ratio	0.7
Cc1cc(=O)oc2c1ccc1oc(C(O)c3ccc(Cl)cc3)c(C)c12 (stereo not drawn)	PFF0160c E182D	enzyme activity, DCIP colorimetric	–	–	baseline: E182D mutant over wild type	IC50 ratio	2.6
O=C(Cn1nnc2ccccc21)Nc1ccccc1N1CCc2sccc2C1	Procathepsin L (CTSL, Homo sapiens, UniProt P07711)	FRET	–	–	–	Hill slope	1.6
COc1cc(N)c(Cl)cc1C(=O)NC1CN2CCC1CC2 (stereo not drawn)	G-protein coupled receptor 20 (GPR20, Homo sapiens, UniProt Q99678)	β-arrestin recruitment, TANGO luminescence, item: GPR20	–	concentration not given	baseline: basal luminescence	log2 fold change	-0.051
Nc1ncnc2c1ncn2[C@@H]1O[C@H](COP(=O)(O)OP(=O)(O)O)[C@@H](O)[C@H]1O	Cell cycle histidine kinase CckA, cytoplasmic region (Caulobacter vibrioides, UniProt Q9X688)	isothermal titration calorimetry	–	concentration not given, 25 °C, added: c-di-GMP 100 µM	–	effective binding enthalpy (ΔH)	~0.3 kcal/mol
Cc1cn([C@H]2C[C@H](O)[C@@H](COP(=O)(O)OP(=O)(O)OP(=O)(O)O)O2)c(=O)[nH]c1=O	DNA polymerase I, Klenow fragment (polA, Escherichia coli, UniProt P00582, C907S/D424A/L744C/Y766A)	nucleotide incorporation, substrate, single-turnover rapid quench	–	added: radiolabelled primer-template DNA	–	maximum incorporation rate	5 ± 0.6 s⁻¹
Cc1ccc(N2CCc3c(-c4cc5cccnc5nc4C)cc(C)nc32)c(Cl)c1.O=C(O)C(F)(F)F.O=C(O)C(F)(F)F	PFF0160c E182D	enzyme activity, DCIP colorimetric	–	–	baseline: E182D mutant over wild type	IC50 ratio	0.1
CCCCC/C=C\C/C=C\C/C=C\C/C=C\CCCC(=O)NCCO	Transient receptor potential cation channel subfamily V member 1 (Trpv1, Mus musculus, UniProt Q704Y3, N552L)	ion current, agonist, whole-cell patch clamp	–	N552L	–	Hill coefficient	3.81 ± 0.72
CN1CCN(c2cc(-c3ccncc3)c(-c3ccc4ccccc4c3)nn2)CC1	Sphingosine 1-phosphate receptor 1 (S1PR1, Homo sapiens, UniProt P21453)	agonist, FLIPR	–	12.5 µM	–	activation	-2.4%
O=C(O)Cn1c(=O)n(Cc2ccc(Br)cc2F)c(=O)c2ccc(Cl)cc21	Fatty acid-binding protein, intestinal (Homo sapiens, UniProt P12104, T55A)	binding, affinity selection mass spectrometry	–	100 nM, pooled screen	baseline: other proteins	fold change	20.1
O=C(Nc1cnccc1Cl)N1CCN(Cc2ccc3c(c2)OC(F)(F)O3)CC1	Sodium-dependent serotonin transporter (SLC6A4, Homo sapiens, UniProt P31645)	radioligand binding, inhibitor	–	50 µM, human, added: [3H]paroxetine	–	inhibition	8%
[2H]c1c([2H])c([C@]2([2H])CCCN2C(=O)C(C)(C)Oc2ccc3cn[nH]c3c2)c([2H])c([2H])c1C([2H])([2H])[2H]	Non-receptor tyrosine-protein kinase TYK2, JH2 pseudokinase domain (TYK2, Homo sapiens, UniProt P29597)	KINOMEscan	–	1 µM	baseline: DMSO control	remaining binding	76%
Cc1nn(C)cc1-c1nc2c(N3CCN(Cc4ccc(Cl)cc4)CC3)c(Cl)cnc2[nH]1	Dual specificity tyrosine-phosphorylation-regulated kinase 2 (DYRK2, Homo sapiens, UniProt Q92630)	KINOMEscan	–	1 µM	baseline: DMSO control	remaining binding	100%
CC(=O)c1cnc2ccc(-c3cc(Cl)c(O)c(Cl)c3)nc2c1N[C@H]1CC[C@H](CN(C)C)CC1	ACHE	–	biochemical	concentration not given	–	activity class	inactive
COc1ccc(Nc2nn3c(-c4ccccc4)ccnc3c2C(=O)Nc2ccc(Cl)cc2)cc1	α-amylase isoenzymes	native PAGE densitometry, item: α-amy1 band	–	equal to IC50	–	band share	100%
O=C(c1ccc(Cl)cc1)N1CCN2C(=O)N(OC(=O)N3CCOc4ccccc43)C(=O)C2C1 (stereo not drawn)	Neutral amino acid transporter B(0) (SLC1A5, Homo sapiens, UniProt Q15758)	MS-based ABPP	SW-620 conditioned medium	10 µM, 1 h, 37 °C	baseline: compound over DMSO, lower = more inhibition	mean protein ratio	1.26
CC(=O)NC[C@H]1[C@H](O)[C@H](O)[C@@H]2[C@H](O)C[C@@H](CO)N21	Spodoptera litura β-N-acetylglucosaminidase	–	crude enzyme	0.0251 µM, run 2, added: p-nitrophenyl GlcNAc	–	inhibition	64.7%
COc1ccc(N2C(=O)N(c3c(C)cccc3Cl)Cc3cnc(Nc4ccc(C5CCN(C)CC5)cc4OC)nc32)nc1	Tyrosine-protein kinase receptor UFO (AXL, Homo sapiens, UniProt P30530)	kinase activity	–	0.5 µM	–	inhibition	11%
CCC[N+]1(C)CCN(c2ccccc2)CC1.[I-]	Neuronal acetylcholine receptor; alpha9/alpha10 (Homo sapiens, UniProt Q9GZZ6+Q9UGM1)	current, agonist, two-electrode voltage clamp	Xenopus oocytes coexpressing rapsyn	α9 coexpressed with α10	baseline: ACh	Imax relative to ACh	0.61 ± 0.01
